# Results collected from several papers.
# Lines come from different studies, so protocols differ. Values joined by “and” are separate records of one study, mostly repeats; a detail may differ. Numbers after ± are the reported error.
# APP: Amyloid-beta precursor protein (APP, Homo sapiens, UniProt P05067)
# CASP4: Caspase-4 (CASP4, Homo sapiens, UniProt P49662)
# Protein S100-B: Protein S100-B (Homo sapiens, UniProt P04271)
# Disks large homolog 4 PDZ3 domain: Disks large homolog 4, PDZ3 domain (Homo sapiens, UniProt P78352)
Molecule,target,test,system,setting,scale,endpoint,value
CC[C@H](C)[C@H](NC(=O)[C@H](NC(=O)[C@@H](N)C(C)C)C(C)C)C(=O)N[C@@H](C)C(N)=O,APP,"amyloid aggregation, inhibitor, fluorescence",,"4 µM, 24 h",,inhibition,46.5%
CN(C)C/C=C/C(=O)Nc1cccc(C(=O)Nc2ccc(Nc3nccc(-c4c(-c5ccccc5)nn5ccccc45)n3)cc2)c1,"Phosphatidylinositol 5-phosphate 4-kinase type-2 gamma (PIP4K2C, Homo sapiens, UniProt Q8TBX8)","ATP-biotin probe labeling, KiNativ",A-375,"1 µM, 3 h, first of two sites",,inhibition,-4.4%
"Ac-ARPVA-NH2 (N-acetyl, C-amide)","Fibroblast growth factor 2, with pentraxin 3 (Homo sapiens, UniProt P09038)","binding to PTX3, competitor, surface plasmon resonance",peptide,together with: 150 nM free FGF2,,ID50,> 3000 µM
O=C(O)CC[C@H](NC(=O)N[C@@H](CCCCNC(=O)[C@H](Cc1ccc2ccccc2c1)NC(=O)[C@H]1CC[C@H](CNC(=O)CN2CCN(CC(=O)O)CCN(CC(=O)O)CCN(CC(=O)O)CC2)CC1)C(=O)O)C(=O)O,"Glutamate carboxypeptidase 2 (FOLH1, Homo sapiens, UniProt Q04609)",,LNCaP,"30 nM, 45 min, 37 °C, 177Lu-labelled",relative to: total cell-bound,internalized fraction,15.5 ± 7.5%
O=C1Nc2ccccc2C1=O,"Parkinson disease protein 7 (PARK7, Homo sapiens, UniProt Q99497)","enzyme activity, inhibitor, HPLC",,"PARK7 5 µM, together with: dGTP 500 µM, methylglyoxal 5 mM",,protection against dGTP glycation,inhibited
O=c1ccn([C@@H]2O[C@H](COP(=O)(O)OP(=O)(O)O)[C@@H](O)[C@H]2O)c(=O)[nH]1,"Histo-blood group ABO system transferase (ABO, Homo sapiens, UniProt P16442, G235S/G268A/L266M/R176G)",ZZ-exchange NMR,,"250 µM, together with: H-disaccharide 1.5 mM",,exchange rate constant kAB,2 ± 0.5 Hz
Oc1ccc(/C=C/c2cc(O)cc(O)c2)cc1,CASP4,,,"33 µM, together with: LEHD substrate",relative to: solvent control,remaining activity,7.48%
CC(=O)N[C@@H](CCC(=O)O)C(=O)N[C@H](C(=O)N[C@@H](CC(C)C)C(=O)N[C@H](C(=O)N[C@@H](CCCNC(=N)N)C(=O)N1CCC[C@H]1C(=O)N[C@@H](CCCCN)C(=O)N1CCC[C@H]1C(=O)N[C@@H](CC(C)C)C(=O)N[C@@H](CC(C)C)C(=O)N[C@@H](CC(C)C)C(=O)N[C@@H](CCCCN)C(=O)N[C@@H](CC(C)C)C(=O)N[C@@H](CC(C)C)C(=O)N[C@@H](CCCCN)C(=O)N[C@@H](CO)C(=O)N[C@H](C(=O)NCC(=O)N[C@@H](C)C(=O)N[C@@H](Cc1ccc(O)cc1)C(N)=O)C(C)C)C(C)C)[C@@H](C)O,Protein S100-B,"binding, NMR line shape, fixed Kd",,"35 °C, low salt",,koff,160 ± 30 s⁻¹
CGLF,"Protein farnesyltransferase (Rattus norvegicus, UniProt Q02293+Q04631)","substrate, stopped-flow fluorescence",peptide,"pH 7.8, 25 °C, single turnover",,farnesylation rate constant,0.051 ± 0.005 s⁻¹
CNc1cccc2cc(C(=O)Nc3cccc(C(=O)O)c3)c(=O)[nH]c12,"DNA gyrase subunit B (gyrB, Escherichia coli, UniProt P0AES6)","DNA supercoiling, inhibitor",,concentration not given,relative to: analogue without N-methylamino,fold increase in activity,> 470 fold
Nc1nc2c(ncn2[C@@H]2O[C@@H]3COP(=O)(O)O[C@H]3[C@H]2O)c(=O)[nH]1,"Cyclic nucleotide-gated channel alpha-2 (Cnga2, Rattus norvegicus, UniProt Q00195)","ion current, agonist, inside-out patch clamp",,"WT channel, -50 mV",relative to: cAMP at saturation,relative maximal current,1
CN(c1ccccc1Cl)S(=O)(=O)C1CC2OC1C(c1ccc(O)cc1)=C2c1ccc(O)cc1 (centres unmarked),"Estrogen receptor (ESR1, Homo sapiens, UniProt P03372)","reporter gene, antagonist",HepG2,together with: estradiol 10 nM,"relative to: E2 response, negative is inverse agonism",efficacy,41 ± 1%
NC(=O)C(=O)O,"pyc (Rhizobium etli, UniProt Q2K340)","ATP cleavage, substrate inhibitor",,"pH 7.8, 30 °C, together with: 20 mM bicarbonate, 2.5 mM MgATP, 0.25 mM acetyl-CoA",,Ki,19000 ± 2000 µM
O=C(C=Cc1ccc(O)c(OC(F)(F)F)c1)C(CCOC1CCCCO1)C(=O)C=Cc1ccc(O)c(OC(F)(F)F)c1 (centres unmarked),APP,"Aβ aggregation, SDS-PAGE western blot, item: Aβ1-42 75-200 kDa band",,"30 µM, 24 h, 37 °C, together with: Aβ1-42 10 µM",relative to: DMSO,band density,2610 ± 1040%
O=C(/C=C\n1cnc(-c2cc(C(F)(F)F)cc(C(F)(F)F)c2)n1)NNc1cnccn1,"Exportin-1 (CRM1, Saccharomyces cerevisiae, UniProt P30822, del377-413/T539C)","NES binding, pull-down",,"90 min, 4 °C, together with: 2 µM protein, 10 µM RanGTP",,concentration for complete inhibition,5 µM
"Ac-GPSLNPFDEED-NH2 (N-acetyl, C-amide)","EHD1 EH domain, mouse",ITC,peptide,"pH 7.0, 20 °C, 0 mM KCl, first titration",,TΔS,-14 kJ/mol
CC1=NN(c2nc(-c3ccc(Cl)cc3)cs2)C(=O)/C1=C\c1ccc2c(c1)OCO2,"rabbit myokinase, pyruvate kinase, lactate dehydrogenase","coupled enzyme activity, promiscuity counterscreen",,90 min preincubation,,lowest inhibitory concentration,> 6.25 µM
O=S(=O)(O)c1cc(N=C=S)ccc1CCc1ccc(N=C=S)cc1S(=O)(=O)O,"SLC4A1 (Homo sapiens, UniProt P02730)",chloride exchange,human resealed ghosts,"0 °C, no chloride gradient, together with: chloride 60 mM both sides",,ID50,0.13 µM and 0.16 µM and 0.14 µM
Cn1c(=O)c2[nH]c(SCc3ccccc3)nc2n(C)c1=O,"Androgen receptor (AR, Homo sapiens, UniProt P10275)","reporter gene, antagonist, PSA-luciferase",HeLa-A6,"10 µM, 24 h, together with: 5 nM dihydrotestosterone",relative to: maximal activity,remaining activity,121%
O=c1ccn([C@@H]2O[C@H](COP(=O)(O)O)[C@@H](O)[C@H]2O)c(=O)[nH]1,"Adenylate kinase isoenzyme 1 (AK1, Homo sapiens, UniProt P00568)",substrate,,,relative to: kcat of D-AMP with human AK1,relative Vmax,2.9%
CCCSc1nc2c([nH]1)c(=O)n(C)c(=O)n2C,"Glucocorticoid receptor (Nr3c1, Rattus norvegicus, UniProt P06536)","reporter gene, antagonist, MMTV-luciferase",T47D/A1-2,"10 µM, 24 h, together with: 5 nM dexamethasone",relative to: maximal activity,remaining activity,101%
BODIPY FL GTP,"Ras-related protein Rab-7a (Canis lupus familiaris, UniProt P18067)",nucleotide dissociation,,together with: BODIPY FL nucleotide 500 nM chased by GTP 1 mM,,koff,0.0066 s⁻¹
Oc1ccc(OCc2ccccc2)cc1,CASP4,,,"33 µM, together with: LEHD substrate",relative to: solvent control,remaining activity,15.1%
CC(C)[C@H](NC(=O)[C@H](Cc1c[nH]c2ccccc12)NC(=O)[C@@H]1CCCN1C(=O)[C@@H]1CCCN1C(=O)[C@H](Cc1ccccc1)NC(=O)[C@H](CO)NC(=O)CN)C(=O)N[C@@H](CCC(N)=O)C(=O)O,Disks large homolog 4 PDZ3 domain,"binding, surface plasmon resonance",,"pH 7.5, 25 °C",,kon,1000 M⁻¹ s⁻¹
CCN(CC)c1ccc(C=O)cc1,"ALDH9A1 (Homo sapiens, UniProt P49189)","enzyme activity, inhibitor, absorbance",,,,KI (inactivation),0.054 µM
CN(Cc1cnc2nc(N)nc(N)c2n1)c1ccc(C(=O)N[C@@H](CCC(=O)O)C(=O)O)cc1,"Reduced folate transporter (SLC19A1, Homo sapiens, UniProt P41440)","transport, substrate",K562 transfected (K500E),"180 s, 37 °C",,Vmax,4.62 ± 0.37 pmol/mg protein/min
CC(C)[C@H](NC(=O)[C@H](CCCNC(=N)N)NC(=O)[C@@H](NC(=O)[C@H](CCC(N)=O)NC(=O)[C@H](CCC(N)=O)NC(=O)[C@@H](NC(=O)[C@H](Cc1c[nH]c2ccccc12)NC(=O)[C@@H]1CCCN1C(=O)[C@H]1CCCN1C(=O)[C@H](Cc1ccccc1)NC(=O)[C@H](CO)NC(=O)CNC(=O)[C@H](CCCNC(=N)N)NC(=O)[C@H](CCCNC(=N)N)NC(=O)[C@H](CCCNC(=N)N)NC(=O)[C@H](CCCNC(=N)N)NC(=O)[C@H](CCCNC(=N)N)NC(=O)[C@@H](N)CCCNC(=N)N)C(C)C)[C@@H](C)O)C(=O)O,Disks large homolog 4 PDZ3 domain,"binding, surface plasmon resonance",,"pH 7.5, 25 °C",,kon,1.88e+06 M⁻¹ s⁻¹
CSCC[C@H](NC(=O)[C@H](CC(C)C)NC(=O)[C@H](CCCCN)NC(=O)[C@H](CCCCN)NC(=O)[C@H](Cc1c[nH]cn1)NC(=O)[C@H](CCCNC(=N)N)NC(=O)[C@H](CO)NC(=O)[C@@H](NC(=O)[C@H](CO)NC(=O)[C@H](CCC(N)=O)NC(=O)CNC(=O)[C@H](CCCCN)NC(=O)[C@H](CCCCN)NC(=O)[C@H](CO)NC(=O)[C@H](CCCCN)NC(=O)[C@H](CC(C)C)NC(=O)[C@H](Cc1c[nH]cn1)NC(=O)[C@H](CO)NC(=O)[C@H](Cc1ccc(O)cc1)NC(C)=O)[C@@H](C)O)C(=O)N[C@@H](Cc1ccccc1)C(=O)N[C@@H](CCCCN)C(=O)N[C@H](C(=O)N[C@@H](CCC(=O)O)C(N)=O)[C@@H](C)O,Protein S100-B,"binding, NMR line shape, Kd from ITC",,"35 °C, low salt",,koff,760 ± 150 s⁻¹
GAGAGAGTTPGPG,"Polypeptide N-acetylgalactosaminyltransferase 4 (GALNT4, Homo sapiens, UniProt Q8N4A0)",substrate,peptide,"concentration not given, together with: UDP-[3H]GalNAc",,UDP-GalNAc hydrolysis,40 to 50%
CCCCC/C=C\C[C@H](O)/C=C/C=C\C/C=C\CCCC(=O)O,"Seed linoleate 13S-lipoxygenase-1 (Glycine max, UniProt P08170)",substrate specificity kcat/KM AA/LA,,"pH 9.2, 22 °C, together with: arachidonic and linoleic acid",,AC50,28 ± 2 µM
CC[C@H](C)[C@H](N)C(=O)N[C@@H](CCC(=O)O)C(=O)N[C@@H](CC(C)C)C(=O)N[C@@H](CC(C)C)C(=O)N[C@@H](CCC(N)=O)C(=O)N[C@@H](C)C(=O)N[C@@H](CCCNC(=N)N)C(=O)N[C@@H](CCCCNC(=O)COCCOCCOCCOCCN=[N+]=[N-])C(N)=O,"E-selectin (SELE, Homo sapiens, UniProt P16581)","binding, surface plasmon resonance",,,,dissociation rate constant,0.00231 ± 0.000491 s⁻¹
"Ac-YESTNPFTAK-NH2 (N-acetyl, C-amide)","EHD1 EH domain, mouse",ITC,peptide,"pH 7.0, 20 °C, 0 mM KCl, first titration",,ΔS,-22.7 cal/mol/K

# Excerpt of the above:
Molecule,target,test,system,setting,scale,endpoint,value
Oc1ccc(/C=C/c2cc(O)cc(O)c2)cc1,CASP4,,,"33 µM, together with: LEHD substrate",relative to: solvent control,remaining activity,7.48%
CN(c1ccccc1Cl)S(=O)(=O)C1CC2OC1C(c1ccc(O)cc1)=C2c1ccc(O)cc1 (centres unmarked),"Estrogen receptor (ESR1, Homo sapiens, UniProt P03372)","reporter gene, antagonist",HepG2,together with: estradiol 10 nM,"relative to: E2 response, negative is inverse agonism",efficacy,41 ± 1%
CC[C@H](C)[C@H](NC(=O)[C@H](NC(=O)[C@@H](N)C(C)C)C(C)C)C(=O)N[C@@H](C)C(N)=O,APP,"amyloid aggregation, inhibitor, fluorescence",,"4 µM, 24 h",,inhibition,46.5%
O=S(=O)(O)c1cc(N=C=S)ccc1CCc1ccc(N=C=S)cc1S(=O)(=O)O,"SLC4A1 (Homo sapiens, UniProt P02730)",chloride exchange,human resealed ghosts,"0 °C, no chloride gradient, together with: chloride 60 mM both sides",,ID50,0.13 µM and 0.16 µM and 0.14 µM
